Published values gathered from unrelated publications.
Each numbered part is a random draw from the data of one study; scales do not carry over between parts.
Sequence of UniProt Q8RYC6 (whole entry, looked up): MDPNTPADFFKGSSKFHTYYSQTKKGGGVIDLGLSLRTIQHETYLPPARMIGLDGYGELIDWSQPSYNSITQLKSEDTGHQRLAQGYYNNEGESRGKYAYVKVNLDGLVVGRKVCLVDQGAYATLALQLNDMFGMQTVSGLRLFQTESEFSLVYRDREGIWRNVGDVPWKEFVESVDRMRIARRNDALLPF
Sequence of UniProt Q93WC4 (whole entry, looked up): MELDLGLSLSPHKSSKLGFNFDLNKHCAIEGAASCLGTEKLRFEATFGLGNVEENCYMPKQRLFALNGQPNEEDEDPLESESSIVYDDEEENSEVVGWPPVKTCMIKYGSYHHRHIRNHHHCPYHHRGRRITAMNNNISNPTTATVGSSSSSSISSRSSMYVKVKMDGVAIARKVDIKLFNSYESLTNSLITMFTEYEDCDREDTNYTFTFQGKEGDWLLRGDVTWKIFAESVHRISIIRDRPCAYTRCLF
Sequence of UniProt Q13470 (whole entry, looked up): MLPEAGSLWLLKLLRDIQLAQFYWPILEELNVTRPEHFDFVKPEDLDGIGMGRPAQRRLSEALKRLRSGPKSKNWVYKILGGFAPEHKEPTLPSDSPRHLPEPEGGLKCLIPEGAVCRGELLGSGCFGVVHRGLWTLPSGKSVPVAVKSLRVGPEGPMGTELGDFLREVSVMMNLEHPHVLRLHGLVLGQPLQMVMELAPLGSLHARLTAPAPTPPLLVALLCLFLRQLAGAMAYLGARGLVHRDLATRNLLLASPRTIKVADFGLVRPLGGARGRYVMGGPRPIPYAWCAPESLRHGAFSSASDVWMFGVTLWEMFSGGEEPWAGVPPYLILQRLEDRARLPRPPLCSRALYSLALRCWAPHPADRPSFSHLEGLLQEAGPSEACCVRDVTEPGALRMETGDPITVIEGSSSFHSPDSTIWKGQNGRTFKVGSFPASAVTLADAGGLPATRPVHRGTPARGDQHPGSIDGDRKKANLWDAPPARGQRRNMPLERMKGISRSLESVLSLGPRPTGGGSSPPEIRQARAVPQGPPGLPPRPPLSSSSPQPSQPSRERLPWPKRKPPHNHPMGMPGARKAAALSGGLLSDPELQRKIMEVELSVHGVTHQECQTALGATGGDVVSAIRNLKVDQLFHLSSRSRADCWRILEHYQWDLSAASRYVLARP
Sequence of UniProt P06239 (whole entry, looked up): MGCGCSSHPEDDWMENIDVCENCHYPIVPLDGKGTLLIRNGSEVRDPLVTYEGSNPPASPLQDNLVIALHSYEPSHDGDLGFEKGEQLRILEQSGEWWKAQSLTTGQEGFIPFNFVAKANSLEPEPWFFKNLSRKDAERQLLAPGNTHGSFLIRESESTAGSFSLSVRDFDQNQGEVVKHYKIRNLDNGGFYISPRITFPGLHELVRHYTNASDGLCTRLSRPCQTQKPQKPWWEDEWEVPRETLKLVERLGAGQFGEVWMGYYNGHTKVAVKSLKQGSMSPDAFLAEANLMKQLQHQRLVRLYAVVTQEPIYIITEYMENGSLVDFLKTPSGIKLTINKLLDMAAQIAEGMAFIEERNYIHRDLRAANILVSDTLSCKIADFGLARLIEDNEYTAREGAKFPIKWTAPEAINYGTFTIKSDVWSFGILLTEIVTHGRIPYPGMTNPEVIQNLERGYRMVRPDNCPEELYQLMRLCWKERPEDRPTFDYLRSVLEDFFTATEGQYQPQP
Sequence of UniProt P49137 (whole entry, looked up): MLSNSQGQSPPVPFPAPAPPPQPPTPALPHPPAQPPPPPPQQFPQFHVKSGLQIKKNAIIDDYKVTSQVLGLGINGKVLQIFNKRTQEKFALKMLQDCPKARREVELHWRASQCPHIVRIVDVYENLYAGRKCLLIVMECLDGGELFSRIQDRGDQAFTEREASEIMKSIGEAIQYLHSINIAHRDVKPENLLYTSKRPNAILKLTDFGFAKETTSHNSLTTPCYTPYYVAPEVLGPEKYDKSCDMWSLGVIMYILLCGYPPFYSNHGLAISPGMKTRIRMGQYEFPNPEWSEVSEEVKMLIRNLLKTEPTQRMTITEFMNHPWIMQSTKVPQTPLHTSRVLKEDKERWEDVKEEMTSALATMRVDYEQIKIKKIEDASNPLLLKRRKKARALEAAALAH
Sequence of UniProt P42685 (whole entry, looked up): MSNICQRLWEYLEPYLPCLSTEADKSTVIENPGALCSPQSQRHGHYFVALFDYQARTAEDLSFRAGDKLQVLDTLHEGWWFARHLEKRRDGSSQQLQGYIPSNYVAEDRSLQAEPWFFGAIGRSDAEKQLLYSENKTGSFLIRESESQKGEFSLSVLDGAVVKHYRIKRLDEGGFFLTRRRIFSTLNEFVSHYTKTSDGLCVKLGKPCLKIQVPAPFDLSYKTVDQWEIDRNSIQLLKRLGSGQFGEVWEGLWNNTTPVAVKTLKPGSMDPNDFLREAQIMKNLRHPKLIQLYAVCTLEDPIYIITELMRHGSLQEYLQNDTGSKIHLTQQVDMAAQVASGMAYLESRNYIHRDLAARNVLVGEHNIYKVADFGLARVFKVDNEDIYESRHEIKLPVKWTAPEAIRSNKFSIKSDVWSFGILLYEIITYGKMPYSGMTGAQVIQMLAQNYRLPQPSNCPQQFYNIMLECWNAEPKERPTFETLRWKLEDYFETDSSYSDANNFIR
Sequence of UniProt Q8TDC3 (whole entry, looked up): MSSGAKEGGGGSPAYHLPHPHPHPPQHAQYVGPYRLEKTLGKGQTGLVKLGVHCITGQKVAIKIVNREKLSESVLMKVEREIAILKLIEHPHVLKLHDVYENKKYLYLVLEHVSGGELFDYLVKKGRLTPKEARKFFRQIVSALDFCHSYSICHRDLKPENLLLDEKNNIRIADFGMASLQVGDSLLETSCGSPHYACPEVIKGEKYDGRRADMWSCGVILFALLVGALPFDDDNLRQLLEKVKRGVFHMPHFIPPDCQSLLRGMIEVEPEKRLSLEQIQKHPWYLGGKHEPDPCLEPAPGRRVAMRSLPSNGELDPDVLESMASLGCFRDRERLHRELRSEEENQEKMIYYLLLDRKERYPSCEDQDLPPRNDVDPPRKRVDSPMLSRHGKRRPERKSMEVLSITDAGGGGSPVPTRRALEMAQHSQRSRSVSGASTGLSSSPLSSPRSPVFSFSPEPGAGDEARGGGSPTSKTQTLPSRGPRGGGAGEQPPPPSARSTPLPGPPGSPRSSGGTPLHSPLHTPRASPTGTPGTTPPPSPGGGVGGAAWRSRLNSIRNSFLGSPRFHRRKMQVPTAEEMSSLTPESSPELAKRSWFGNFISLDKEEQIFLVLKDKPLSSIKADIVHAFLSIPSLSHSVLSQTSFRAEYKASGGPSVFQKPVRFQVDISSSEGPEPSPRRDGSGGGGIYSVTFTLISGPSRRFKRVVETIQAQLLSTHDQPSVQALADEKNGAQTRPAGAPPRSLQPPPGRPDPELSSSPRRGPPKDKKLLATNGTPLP
Sequence of UniProt Q9FX25 (whole entry, looked up): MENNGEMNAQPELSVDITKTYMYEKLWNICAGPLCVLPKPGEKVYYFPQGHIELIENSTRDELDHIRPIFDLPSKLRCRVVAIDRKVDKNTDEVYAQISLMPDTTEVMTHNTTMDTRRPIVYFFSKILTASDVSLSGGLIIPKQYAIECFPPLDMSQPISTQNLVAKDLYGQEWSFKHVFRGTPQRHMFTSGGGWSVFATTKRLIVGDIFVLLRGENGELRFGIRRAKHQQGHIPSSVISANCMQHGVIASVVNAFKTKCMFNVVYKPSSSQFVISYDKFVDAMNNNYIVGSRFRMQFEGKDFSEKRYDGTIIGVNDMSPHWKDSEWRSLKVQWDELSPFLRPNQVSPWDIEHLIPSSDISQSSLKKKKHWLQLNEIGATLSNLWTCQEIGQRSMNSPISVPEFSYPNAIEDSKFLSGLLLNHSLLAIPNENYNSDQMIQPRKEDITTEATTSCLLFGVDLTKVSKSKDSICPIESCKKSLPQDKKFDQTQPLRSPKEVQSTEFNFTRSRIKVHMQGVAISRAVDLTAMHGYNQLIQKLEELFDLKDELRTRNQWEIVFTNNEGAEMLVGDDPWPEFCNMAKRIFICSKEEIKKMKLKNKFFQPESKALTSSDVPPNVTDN
Sequence of UniProt P10721 (whole entry, unmodified, looked up): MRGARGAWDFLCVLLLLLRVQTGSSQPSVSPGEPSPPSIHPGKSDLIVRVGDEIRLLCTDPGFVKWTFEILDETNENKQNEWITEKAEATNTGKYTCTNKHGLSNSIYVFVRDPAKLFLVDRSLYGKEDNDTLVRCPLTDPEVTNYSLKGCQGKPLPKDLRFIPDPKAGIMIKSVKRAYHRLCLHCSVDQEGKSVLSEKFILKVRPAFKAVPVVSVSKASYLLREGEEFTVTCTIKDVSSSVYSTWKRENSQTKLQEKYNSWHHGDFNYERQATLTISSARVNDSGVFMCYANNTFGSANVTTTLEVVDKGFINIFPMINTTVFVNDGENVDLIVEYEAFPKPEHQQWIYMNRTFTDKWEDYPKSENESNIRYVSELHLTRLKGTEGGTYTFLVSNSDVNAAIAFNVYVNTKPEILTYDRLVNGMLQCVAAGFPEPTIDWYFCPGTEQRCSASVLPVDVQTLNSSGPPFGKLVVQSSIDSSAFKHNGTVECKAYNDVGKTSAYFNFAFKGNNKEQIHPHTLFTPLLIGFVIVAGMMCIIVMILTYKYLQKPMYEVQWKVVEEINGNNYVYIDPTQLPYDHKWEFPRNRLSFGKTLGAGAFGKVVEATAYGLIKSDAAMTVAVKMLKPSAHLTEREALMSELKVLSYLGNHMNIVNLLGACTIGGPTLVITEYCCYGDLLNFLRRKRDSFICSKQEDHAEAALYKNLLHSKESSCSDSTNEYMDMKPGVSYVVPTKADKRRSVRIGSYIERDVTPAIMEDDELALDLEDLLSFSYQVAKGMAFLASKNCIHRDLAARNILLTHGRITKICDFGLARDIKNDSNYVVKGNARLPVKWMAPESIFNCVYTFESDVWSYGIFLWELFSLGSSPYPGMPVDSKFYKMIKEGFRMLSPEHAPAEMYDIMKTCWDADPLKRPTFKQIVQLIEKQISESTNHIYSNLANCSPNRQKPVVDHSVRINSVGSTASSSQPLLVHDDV

Set 1 — observed: cell-free assay; technique: competition with immobilised ligand; concentration: 1 µM
Compound: CS(=O)(=O)NCC[C@H](NC(=O)c1cncc2c1cnn2-c1ccc(F)cc1)c1ccnc(S(C)(=O)=O)c1
For Serine/threonine-protein kinase 38 (STK38, Homo sapiens, UniProt Q15208): remaining binding read 100%.
For Non-receptor tyrosine-protein kinase TNK1 (TNK1, Homo sapiens, UniProt Q13470): remaining binding read 100%.
The remaining binding was 97% (Tyrosine-protein kinase ABL1, non-phosphorylated (ABL1, Homo sapiens, UniProt P00519, H396P)).
Dual specificity protein kinase CLK1 (CLK1, Homo sapiens, UniProt P49759) — remaining binding: 93%.
The remaining binding was 100% (Fibroblast growth factor receptor 2 (FGFR2, Homo sapiens, UniProt P21802)).
It gave 100% for remaining binding (Epidermal growth factor receptor (EGFR, Homo sapiens, UniProt P00533, del752-759)).
The remaining binding was 100% (Dual specificity mitogen-activated protein kinase kinase 7 (MAP2K7, Homo sapiens, UniProt O14733)).
For Myosin light chain kinase, smooth muscle (MYLK, Homo sapiens, UniProt Q15746): remaining binding read 100%.
It gave 100% for remaining binding (Ribosomal protein S6 kinase alpha-4, C-terminal kinase domain (RPS6KA4, Homo sapiens, UniProt O75676)).
For Dual specificity mitogen-activated protein kinase kinase 2 (MAP2K2, Homo sapiens, UniProt P36507): remaining binding read 100%.
The remaining binding was 99% (Serine/threonine-protein kinase BRSK1 (BRSK1, Homo sapiens, UniProt Q8TDC3)).
For Homeodomain-interacting protein kinase 2 (HIPK2, Homo sapiens, UniProt Q9H2X6): remaining binding read 100%.
Dual specificity tyrosine-phosphorylation-regulated kinase 1A (DYRK1A, Homo sapiens, UniProt Q13627) — remaining binding: 100%.
Receptor tyrosine-protein kinase erbB-3 (ERBB3, Homo sapiens, UniProt P21860) — remaining binding: 100%.
The remaining binding was 100% (Uncharacterized serine/threonine-protein kinase SBK3 (SBK3, Homo sapiens, UniProt P0C264)).
Mast/stem cell growth factor receptor Kit (KIT, Homo sapiens, UniProt P10721, A829P) — remaining binding: 83%.
For Hepatocyte growth factor receptor (MET, Homo sapiens, UniProt P08581): remaining binding read 79%.

Set 2 — Molecule: B1 (IAA27); technique: two-hybrid; reading: higher = firmer interaction
B1: IAA27 (Arabidopsis thaliana, UniProt Q9ZSY8); chain MSVSVAAEHDYIGLSEFPTMEATTMSDKTKTRDNNNGLNFKATELRLGLPGSESPERVDSRFLALNKSSCPVSGAKRVFSDAINDSNKWVFSPGSTTATGDVGSGSGPRTSVVKDGKSTTFTKPAVPVKEKKSSATAPASKAQVVGWPPIRSFRKNSMASSQSQKPGNNSETEEAEAKSGPEQPCLYVKVSMEGAPYLRKIDLKTYKSYLELSSALEKMFSCFTIGQFGSHGGCGRDGLNESRLTDLLRGSEYVVTYEDKDSDWMLVGDVPWEMFICSCKKLRIMKSSEAIGLAPRVMEKCRSRN
It gave 1 for positive tests (IAA32 (Arabidopsis thaliana, UniProt Q8RYC6); reference: out of 4 tests).
The positive tests was 1 (IAA29 (Arabidopsis thaliana, UniProt Q93WC4); reference: out of 4 tests).
It gave 4 for positive tests (ARF6 790-935 (Arabidopsis thaliana, UniProt Q9ZTX8); reference: out of 4 tests).
ARF9 519-638 (Arabidopsis thaliana, UniProt Q9XED8); weak activation fusion; reference: out of 2 tests — positive tests: 2.
For ARF13 (Arabidopsis thaliana, UniProt Q9FX25); reference: out of 2 tests: positive tests read 0.

Set 3 — SMILES: O=c1cc(N2CCOCC2)oc2c1ccc1ccccc12; observed: enzyme activity; action: inhibitor; concentration: 0.5 µM; reference: control
For Mitogen-activated protein kinase kinase kinase 14 (MAP3K14, Homo sapiens, UniProt Q99558): remaining activity read 81.2%.
It gave 106% for remaining activity (Serine/threonine-protein kinase Nek1 (NEK1, Homo sapiens, UniProt Q96PY6)).
It gave 107% for remaining activity (Rhodopsin kinase GRK7 (GRK7, Homo sapiens, UniProt Q8WTQ7)).
It gave 98.8% for remaining activity (Tyrosine-protein kinase FRK (FRK, Homo sapiens, UniProt P42685)).
It gave 98.3% for remaining activity (MAP kinase-activated protein kinase 2 (MAPKAPK2, Homo sapiens, UniProt P49137)).
For Tyrosine-protein kinase Lck (LCK, Homo sapiens, UniProt P06239): remaining activity read 99.2%.
For Mitogen-activated protein kinase 3 (MAPK3, Homo sapiens, UniProt P27361): remaining activity read 106%.
Ribosomal protein S6 kinase alpha-2 (RPS6KA2, Homo sapiens, UniProt Q15349) — remaining activity: 98.8%.
It gave 112% for remaining activity (Ephrin type-A receptor 3 (EPHA3, Homo sapiens, UniProt P29320)).
For Angiopoietin-1 receptor (TEK, Homo sapiens, UniProt Q02763): remaining activity read 94.4%.
It gave 100% for remaining activity (Dual specificity mitogen-activated protein kinase kinase 2 (MAP2K2, Homo sapiens, UniProt P36507)).
Wee1-like protein kinase (WEE1, Homo sapiens, UniProt P30291) — remaining activity: 101%.
For Fibroblast growth factor receptor 3 (FGFR3, Homo sapiens, UniProt P22607): remaining activity read 98.2%.

Set 4 — host: mouse; sample: microsomes or S9; concentration: 2 µM; time: 0.5 h
For `CCC(CN1CCCC1)n1cncc1-c1cnc(N2CCC(C)CC2)nc1` (centres unmarked), the remaining compound was 62.5%.
With `CCOC(=O)C1CCN(C(=O)CCc2ccc(C(C)(C)C)cc2)CC1` the remaining compound was 0.217%.
`CC(C)(C)OC(=O)N1CCO[C@H](Cn2nnc3ncc(Br)nc32)C1` has a remaining compound of 93.1%.

For quick reference, copied from above (set 1):
For Non-receptor tyrosine-protein kinase TNK1 (TNK1, Homo sapiens, UniProt Q13470): remaining binding read 100%.
The remaining binding was 97% (Tyrosine-protein kinase ABL1, non-phosphorylated (ABL1, Homo sapiens, UniProt P00519, H396P)).
Dual specificity protein kinase CLK1 (CLK1, Homo sapiens, UniProt P49759) — remaining binding: 93%.
The remaining binding was 100% (Fibroblast growth factor receptor 2 (FGFR2, Homo sapiens, UniProt P21802)).
It gave 100% for remaining binding (Epidermal growth factor receptor (EGFR, Homo sapiens, UniProt P00533, del752-759)).
